Results pooled from the literature.
A part holds a random share of what one study measured. Positions count from the first letter of the parent shown.

Block 1 — method: universal PBM; form: double-stranded DNA, one strand shown; medium: in vitro; concentration: 600 nM; direction: higher = stronger binding
Target: Sal-like protein 4, full length isoform A (SALL4, Homo sapiens, UniProt Q9UJQ4, residues 1-1053)
Chain of UniProt Q9UJQ4 (whole entry, looked up): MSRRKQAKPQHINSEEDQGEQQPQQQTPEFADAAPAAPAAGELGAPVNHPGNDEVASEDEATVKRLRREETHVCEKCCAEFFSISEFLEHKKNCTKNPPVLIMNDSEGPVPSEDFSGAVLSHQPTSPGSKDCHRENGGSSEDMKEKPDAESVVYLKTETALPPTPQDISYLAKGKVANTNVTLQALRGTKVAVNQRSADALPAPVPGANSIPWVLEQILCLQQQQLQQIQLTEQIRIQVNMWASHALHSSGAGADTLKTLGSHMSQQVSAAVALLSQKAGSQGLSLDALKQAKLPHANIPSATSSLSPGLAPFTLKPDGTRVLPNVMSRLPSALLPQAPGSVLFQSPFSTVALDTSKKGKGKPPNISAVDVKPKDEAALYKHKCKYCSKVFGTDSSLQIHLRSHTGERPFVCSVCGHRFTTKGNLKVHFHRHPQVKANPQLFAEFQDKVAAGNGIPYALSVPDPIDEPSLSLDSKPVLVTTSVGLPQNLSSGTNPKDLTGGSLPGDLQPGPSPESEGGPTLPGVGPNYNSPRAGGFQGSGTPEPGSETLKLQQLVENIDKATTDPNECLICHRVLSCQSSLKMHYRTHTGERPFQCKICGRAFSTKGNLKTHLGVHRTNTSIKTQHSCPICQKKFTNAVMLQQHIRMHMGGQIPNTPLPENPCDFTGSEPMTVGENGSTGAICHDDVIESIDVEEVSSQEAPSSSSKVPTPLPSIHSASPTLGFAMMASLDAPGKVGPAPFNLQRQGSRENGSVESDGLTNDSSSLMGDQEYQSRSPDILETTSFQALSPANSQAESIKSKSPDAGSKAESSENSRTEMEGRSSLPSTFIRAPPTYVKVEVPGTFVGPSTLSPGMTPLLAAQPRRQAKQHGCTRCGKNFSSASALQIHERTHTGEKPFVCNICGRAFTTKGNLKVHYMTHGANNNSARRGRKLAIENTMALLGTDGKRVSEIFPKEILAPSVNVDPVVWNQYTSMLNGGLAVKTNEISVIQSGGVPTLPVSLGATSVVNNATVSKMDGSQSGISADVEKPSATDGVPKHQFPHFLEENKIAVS
Setting: 8-mer, flanks averaged, mean of replicates
The E-score of `AACTAGTT` is reported as 0.227.
For `CTAAAGAC`, the E-score was 0.0724.
`CACTTTTC` gave an E-score of 0.109.
With `ATCAAATC` the E-score was 0.25.
`GTAGTCAA` gave an E-score of 0.107.
For `CGTTAGGC`, the E-score was -0.0502.
For `AAGCAGCT`, the E-score was -0.0887.
With `AGGGCACA` the E-score was 0.053.
`CTTCTTCC` gave an E-score of -0.14.
`AGCCATGC` gave an E-score of -0.0892.
The E-score of `CTTGCAAC` is reported as -0.0031.

Block 2 — target: CCND1, cyclin fold, Cln2 fusion (human); method: yeast growth competition, sequencing; medium: yeast; setting: weak parent motif; baseline: not given; direction: higher = stronger binding
Parent: SLBP docking peptide (human); ARYKRKLLINDFG
`HRYKRKLLINDFG [A1H]`: “normalised enrichment score” -0.153.
Under “normalised enrichment score”, `ARYKRKALINDFG [L7A]` is recorded as -0.542.
For `ARYKRKLLINDAG [F12A]`, “normalised enrichment score” read -0.133.
For `ARAKRKLLINDFG [Y3A]`, “normalised enrichment score” read 0.79.
`ARYKRFLLINDFG [K6F]` — result for “normalised enrichment score”: -0.0469.
Under “normalised enrichment score”, `ARYKVKLLINDFG [R5V]` is recorded as 0.486.
`ARYKRKLLINSFG [D11S]` — result for “normalised enrichment score”: 0.177.
`ARYNRKLLINDFG [K4N]` — result for “normalised enrichment score”: 0.12.
`ARYKRKLLYNDFG [I9Y]` — result for “normalised enrichment score”: 0.148.
For `ARYKRKWLINDFG [L7W]`, “normalised enrichment score” read -0.476.
`ARYKRKLLIIDFG [N10I]` — result for “normalised enrichment score”: 0.316.
`QRYKRKLLINDFG [A1Q]`: “normalised enrichment score” -0.936.
`ARYVRKLLINDFG [K4V]`: “normalised enrichment score” 0.244.

Block 3 — method: protein binding microarray; form: double-stranded DNA, one strand shown; medium: in vitro; concentration: not given; baseline: not given; direction: higher = stronger binding
Target: Histone acetyltransferase KAT6A, winged helix 2, GST fusion (KAT6A, Homo sapiens, UniProt Q92794, residues 85-181)
Setting: 8-mer, flanks averaged, mean of 2 arrays, mostly near background
Target sequence (chain): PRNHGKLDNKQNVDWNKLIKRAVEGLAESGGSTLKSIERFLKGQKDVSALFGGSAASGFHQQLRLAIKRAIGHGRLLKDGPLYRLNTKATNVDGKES
`ATTCTTAG` gave an E-score of -0.159.
For `CGGATATA`, the E-score was 0.126.
`CAGCTGTC` gave an E-score of -0.193.
`CCTCTTCA` has an E-score of -0.1.
`AAAGAAAT` gave an E-score of 0.243.
With `AGCGAAAG` the E-score was 0.0629.
With `GCTTCACC` the E-score was 0.0729.
The E-score of `CCGTCCAC` is reported as 0.123.
The E-score of `ATTTTCAG` is reported as -0.00311.
`GGTACGCA` has an E-score of 0.0172.
With `ACGCCACT` the E-score was -0.0411.
With `ACCGTTTC` the E-score was -0.0145.
With `GCTTTAGA` the E-score was 0.0824.
`GCGACTAC` has an E-score of -0.123.
With `GGACAGAA` the E-score was -0.105.
`CCATTAGC` has an E-score of -0.0776.
For `GGAGCAGA`, the E-score was 0.0573.
`GCATGAGC` has an E-score of 0.0416.
`CTCTTACC` gave an E-score of 0.00802.
The E-score of `AACCTGAT` is reported as -0.101.
For `GTGCCATA`, the E-score was -0.158.
`AAGCCCTC` has an E-score of -0.0563.
`ACTGAGGC` gave an E-score of 0.0717.

Other studies, line by line
The fold induction of `PhoQ, residues 284 288 289 292 302 303 SCEHLI` is reported as 7.91 (PhoP, residues 12 14 15 18 19 TTLRV (Escherichia coli, UniProt P23836); Sort-seq, item: YFP reporter; E. coli; PhoQ-PhoP variant library, together with: 10 µM Mg2+; baseline: high Mg2+ state, higher = stronger signaling).

Repeated from above (block 1):
For `CGTTAGGC`, the E-score was -0.0502.
`CACTTTTC` gave an E-score of 0.109.
`AGCCATGC` gave an E-score of -0.0892.
With `ATCAAATC` the E-score was 0.25.
